Assay results from different studies.
Numbered parts are unrelated; each lists some results of a single study.

Sample 1
Target: RNA binding protein fox-1 homolog 2, RRM domain, GST-SBP tag (RBFOX2, Homo sapiens, UniProt O43251-10, residues 100-194)
Method: RNA Bind-n-Seq
Molecule type: RNA
Matrix: in vitro
Concentration: 365 nM
Notes: natural RNA segment, single round, ends assumed
Relative to: no-protein control
Direction: higher = stronger binding
All sequences stand within: GGGAGUUCUACAGUCCGACGAUC … UGGAAUUCUCGGGUGCCAA
Residues (chain): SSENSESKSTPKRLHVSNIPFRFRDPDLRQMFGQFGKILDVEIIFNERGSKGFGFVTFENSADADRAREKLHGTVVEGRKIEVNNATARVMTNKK
Sequence | RBNS enrichment (R)
CCCAGCAAGUCAUAACCUCCUGUCUUCUAGGAACCCGUGGGCUUUUACUGUGCAUGUCUCUGUACAAAGUGUACCUCUGGAAGCUGCCAAGUGAUAACACUGCUUUCUUA | 6.21
AUUACGCAAGGAAAGAACGGGAAGAAAGGAUAUUUUGCUGCAAGAUUAAGUUACAGUUCUCAGUGGAAGUCAUUUGUGAUGGGGUCUAAUUCUUAUUACUUCAACAAAUA | 0.585
GGACUCCGAUGAAGACGACGCCGAUUACUAAGAGGACGCACUUAGACAGACUUCCGGAGCAGUGUCUAGGACAGUCACCACCUUGUAAAUGUUUACUUUGUUCCCUGUCU | 0.247
UUUGAUCAGCCUGCUAUCACGGUGUUCUGGCUCUCUUAUUUAGCCAGGCGCUUAAGGGACAGAUACAUCACAUCCUAAGUUUGGGAAAGGCCUUUGACCCAUGUCAUCUG | 0.309
AAUUAUGUUGAAGGUAGAAGUGAUCUUCAAAGAGAUGGCCAUUAACUUAGCAGUGGGACCUCACUUUUACAAGCACUGCUCUAGAUAUACUUGAAGAAUUUAAUAGGUAC | 0.427
UUCUCAAAAGCUGCUUUGUCUCUUUCCUGAGUUUAAUAGUGAAACUACUAAACAUUAAUAGAUUUGCACAGCCACAAAGAAUGAGAGUUGAUAAUACCGAAGAAGUGAUG | 0.269
CUGUGAUGGGUUCUGUUUACCUUUUGCAACAUUUUAUAGCUUGUUUAGUGACUAGUGUGUAGUGAGUCACGAUCAAGGCAUCCUUCAGCUUAGCAUUUUCAGUACUCACU | 1.24
AUCUUUUGCUUUUUUAAAAUUGUUUUUUGCAGUUAAGAGGCAGCUCAUUUGUCCAAAUUUCUGGGCUCAGCGCUUGGGAGGGCAGGAGCCCUGGCACUAAUGCUGUACAG | 0.612
AGGAGCUCACAGUCUAGCCUACUCCCUGGCUGGAAGCCUCAGGAAGACGUGCUAAUUUAUUGUGGAAUUGGUAGUUUGCUUUUCAUGCCCCUGUCUUCCUUCUCAUGACC | 0.496
UCCAGGAGGGACCCUUGGACUUCUUUGUGUGUCCAGUUUGGCCUCCUGCCCAAACUGUCCAUUCCAGCAGCUCCUGCCCCCUUCUCUGUACUUGCUUCUGUCUGACACCU | 0.819
GGUGGGAGGGCAGGAGGCCCAAUGGUUGAAAAUAAGAGGGUUCCCGCCCAGAACUCUUCUUGUGAGAGAUGUGCACUUUAAAGGGUGAUUUUGUUACAGAUGUUUAUGGU | 1.54
AUUUUCCUUUUAGGAGACACACAAUUAAGACUCUCUGGUUCUGUCCUUGCUUUGGAGACUUUAAGACAUUUCCUAAAGCACAAAUAAAAGCCUCGUAUUUCCCCAUUGAG | 0.236

Sample 2
Target: Interferon regulatory factor 7, full length, phosphomimetic (IRF7, Homo sapiens, UniProt Q92985, residues 1-503, S471D/S472D/S475D/S476D/S477D/S483D/S484D/S487D)
UniProt Q92985, sequence (whole entry, unmodified, looked up): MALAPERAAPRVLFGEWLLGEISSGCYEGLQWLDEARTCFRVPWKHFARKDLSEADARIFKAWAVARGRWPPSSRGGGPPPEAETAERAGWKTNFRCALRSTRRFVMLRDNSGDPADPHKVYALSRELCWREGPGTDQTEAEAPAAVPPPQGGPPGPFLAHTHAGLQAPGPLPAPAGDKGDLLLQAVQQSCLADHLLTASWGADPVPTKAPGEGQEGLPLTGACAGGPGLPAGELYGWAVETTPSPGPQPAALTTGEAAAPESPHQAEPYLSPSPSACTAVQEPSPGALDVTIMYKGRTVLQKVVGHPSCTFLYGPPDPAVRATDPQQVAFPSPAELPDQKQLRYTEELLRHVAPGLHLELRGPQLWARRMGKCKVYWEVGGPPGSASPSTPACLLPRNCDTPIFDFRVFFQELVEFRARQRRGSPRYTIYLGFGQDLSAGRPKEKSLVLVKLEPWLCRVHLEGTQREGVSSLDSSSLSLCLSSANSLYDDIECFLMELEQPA
Method: protein-binding microarray
Molecule type: double-stranded DNA, one strand shown
Matrix: in vitro
Concentration: 2200 nM top
Notes: 60-bp whole probe
Added: salmon DNA 0.4 mg/ml
Relative to: random background probes
Direction: higher = stronger binding
All sequences stand within: GCCTAGCAC … GTCTTGATTCGCTTGACGCTGCTG
Sequence | fitted relative affinity [z-score]
TCATCCATGTGTTTAAAACTGTGCTAG | 1.04
AAGGGTCTCTTGTTCTCTCTGTGCTAG | 0.602
GACGGACTAGACTTTCGGGACGTGCTA | 1.83
TGTGCCATATTTATCTGCAAGTGCTAG | 0.665
GGGCCACAAAGCAATAAGAAGTGCTAG | -1.48
TGAGATTTCGGGACTGGATTAGTGCTA | 0.786
TTAGATCTCGGTTTCGATTAGTGCTAG | 5.21
GACGATATGAGTTTCGAGACGTGCTAG | 2.03
TCAATTCTTTTTATGCTACTGTGCTAG | 1.1
ATAGAACTGGGGACTGGATTAGTGCTA | -0.474
AGTTCTAAGGATTTCAGTTTGTGCTAG | 0.804
GACGGGTTCCTTTCCCTGACGTGCTAG | 1.46
TTAGTACTGCTTATCCTTTAGTGCTAG | 1.03
GACGATATCGCGACTGGAGACGTGCTA | 0.37
TTAGGTATCGGGTTTCGATTAGTGCTA | 2.95
GACGGTCTCCTGTTCCTGACGTGCTAG | 1.34
TTAGGTATCCTTAACCTTTAGTGCTAG | 0.377
GACGGTATCCTTCTCCTGACGTGCTAG | 1.22

Sample 3
Target: Histone acetyltransferase KAT6A, winged helix 2, GST fusion (KAT6A, Homo sapiens, UniProt Q92794, residues 85-181)
Method: protein binding microarray
Molecule type: double-stranded DNA, one strand shown
Matrix: in vitro
Concentration: not given
Notes: 8-mer, flanks averaged, mean of 2 arrays, mostly near background
Relative to: not given
Direction: higher = stronger binding
Residues (chain): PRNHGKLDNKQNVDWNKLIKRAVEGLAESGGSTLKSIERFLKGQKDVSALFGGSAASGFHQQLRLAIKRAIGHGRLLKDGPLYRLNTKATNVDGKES
Sequence | E-score
CACTAGGG | -0.054
GAGTTATA | -0.0998
ATACCCGA | -0.0596
AGGTCGCA | 0.179
CTACGTAG | -0.139
AAAGATCG | -0.0383
ATCTCGGC | 0.229
ATCACACG | -0.149
AGGGAGAC | -0.0202
AGGAGAAC | -0.0775
CGTCTCAC | -0.0617
CTAGAGTA | -0.0932
CTTATGGA | -0.0913
CGGGAATA | 0.0701
CGCCAACC | 0.163
ACATCAAA | 0.0771
AATATTCG | 0.103
CCTGATAA | 0.00936
AGCGGACT | -0.222
GACACGGC | 0.0355
CTACGACC | -0.0862
CTCGTAAA | -0.0449

Sample 4
Target: Prothrombin, mature alpha-thrombin (F2, Homo sapiens, UniProt P00734)
Method: aptamer microarray, sandwich
Molecule type: DNA with 2'F-ANA
Matrix: in vitro
Concentration: 200 nM
Notes: whole 15-mer aptamer, many near background
Added: Cy3 exosite-II aptamer, 400 nM
Direction: higher = stronger binding
Sequence: GGTTGGTGTGGTTGG
Modification | mean fluorescence intensity [a.u.]
2'F-ANA at 6 11 12 | 673
2'F-ANA at 1 2 5 12 14 15 | 45.1
2'F-ANA at 5 6 8 14 | 44.4
2'F-ANA at 2 5 7 10 11 12 14 | 43.7
2'F-ANA at 1 2 3 4 6 9 10 11 13 15 | 58
2'F-ANA at 9 11 12 13 14 15 | 182
2'F-ANA at 1 2 3 5 8 9 12 13 15 | 99.5
2'F-ANA at 1 2 5 10 11 12 13 14 15 | 76.2
2'F-ANA at 1 4 6 7 10 11 12 13 | 52.7
2'F-ANA at 1 2 6 9 11 12 14 | 69.5
2'F-ANA at 1 2 4 5 10 12 | 47.4
2'F-ANA at 5 6 10 12 13 15 | 46.8
2'F-ANA at 12 | 1020
2'F-ANA at 1 3 5 6 9 11 12 13 | 72.3
2'F-ANA at 1 3 5 6 8 13 14 15 | 49.4
2'F-ANA at 1 2 3 4 7 8 11 15 | 194
2'F-ANA at 1 3 5 11 12 15 | 102
2'F-ANA at 1 5 6 7 10 12 13 14 | 49.7
2'F-ANA at 1 4 5 7 12 15 | 97.2
2'F-ANA at 2 3 8 11 13 15 | 740
2'F-ANA at 2 5 6 8 11 | 62.7
2'F-ANA at 12 14 | 292
2'F-ANA at 1 3 7 8 9 10 11 | 98.9
2'F-ANA at 1 2 3 4 6 7 8 9 10 13 14 15 | 58
2'F-ANA at 1 4 5 8 9 10 12 13 | 44.9

A few entries again (sample 4):
Modification | mean fluorescence intensity [a.u.]
2'F-ANA at 5 6 8 14 | 44.4
2'F-ANA at 2 5 7 10 11 12 14 | 43.7
2'F-ANA at 1 2 3 4 6 9 10 11 13 15 | 58
2'F-ANA at 9 11 12 13 14 15 | 182
2'F-ANA at 1 2 3 5 8 9 12 13 15 | 99.5
2'F-ANA at 1 2 5 10 11 12 13 14 15 | 76.2
2'F-ANA at 1 4 6 7 10 11 12 13 | 52.7
